Published values from different studies.
Lines come from different studies, so protocols differ. ± gives the spread as reported.
Organism: human cytomegalovirus

Compound	read-out	technique	cells	strain	time	EC50 [µM]
O=c1[nH]c(=O)c2ncn(C[C@H](CF)OCP(=O)(O)O)c2[nH]1	cytopathic effect		HEL	AD169		> 313
Nc1ncn(CC(OCP(=O)(O)O)C(F)(F)F)c(=O)n1 (stereo not drawn)	cytopathic effect		HEL	AD-169		> 100
CCOP(=O)(OCC)[C@@H]1C[C@H](C(=O)Nc2cc3c4c(cccc4c2)C(=O)N(CCN(C)C)C3=O)ON1C (racemic)	plaque formation		HEL	AD169		45
OC[C@H]1O[C@@H](n2cnc3c(NCc4ccccc4)nc(-n4cc(-c5ccccc5)nn4)nc32)[C@H](O)[C@@H]1O	viral plaque formation		HEL	AD-169		> 40
Nc1ncn(CC(O)C(F)(F)F)c(=O)n1 (stereo not drawn)	cytopathic effect		HEL	AD-169		231 ± 12.9
O=c1[nH]c(=O)c2ncn(CC(CO)OCP(=O)(O)O)c2[nH]1 (racemic)	cytopathic effect		HEL	AD169		86.9 ± 21.1
OC[C@H]1O[C@@H](n2cnc3c(O)nc(-n4cc(-c5ccccc5)nn4)nc32)[C@H](O)[C@@H]1O	viral plaque formation		HEL	Davis		> 50
Cc1cn([C@H]2C[C@H](N=[N+]=[N-])[C@@H](COC(=O)Cn3c(=O)ccn(CCCCCCCCCCCCOc4ccc(Br)cc4)c3=O)O2)c(=O)[nH]c1=O	viral replication	plaque reduction	WS1	AD169	5 days	5.1 ± 1.2
CCCN1C(=O)c2cccc3cc(NC(=O)[C@@H]4C[C@@H](P(=O)(OCC)OCC)N(C)O4)cc(c23)C1=O (racemic)	viral plaque formation	plaque reduction	HEL	Davis		55
CCCCCCCCCCCCCCCCOCCCOP(=O)(O)COCCn1cnc2c(=O)[nH]c(=O)[nH]c21	cytopathic effect		HEL	Davis		0.05 ± 0.05
Cc1cn([C@H]2C[C@H](N=[N+]=[N-])[C@@H](COC(=O)Cn3c(=O)ccn(CCCCCCCCOc4ccc(Br)cc4)c3=O)O2)c(=O)[nH]c1=O	viral replication	plaque reduction	WS1	AD169	5 days	12.2 ± 1.7
CCOC(=O)C(C)NP(=O)(COC(CF)CN1CN2C=C(c3ccc(OC)cc3)NC2=NC1=O)NC(C)C(=O)OCC (stereo not drawn)	cytopathic effect		HEL	AD-169		> 100
CC(C)[C@H](NC(=O)[C@]1(Cc2ccccc2)CCN1C(=O)OCc1ccccc1)C(N)=O	viral replication		HEL fibroblasts	Davis	168 h	76
Nc1ccn(C[C@@H](CO)OCP(=O)(O)O)c(=O)n1	cytopathic effect		HEL	Davis		0.92 ± 0.34
NC1=NC(=O)N(C[C@@H](CF)OCP(=O)(O)O)CN1	cytopathic effect		HEL	AD-169		> 100
O=C(O)Cn1c(=O)ccn(CCCCCCCCOc2ccc(Br)cc2)c1=O	viral replication	plaque reduction	WS1	AD169	5 days	11.9 ± 2.1
O=c1nc(NC2CC2)c2ncn(CCOCP(=O)(O)O)c2[nH]1	cytopathic effect		HEL	Davis		> 100
Cc1cn([C@H]2C[C@H](N=[N+]=[N-])[C@@H](COC(=O)Cn3c(=O)ccn(CCCCCCOc4ccc(Br)cc4)c3=O)O2)c(=O)[nH]c1=O	viral replication	plaque reduction	WS1	AD169	5 days	7.9 ± 3
Nc1ccn(C[C@@H](CO)OCP(=O)(O)O)c(=O)n1	cytopathic effect		HEL	AD-169		0.93 ± 0.34
Nc1ccn(C[C@@H](CO)OCP(=O)(O)O)c(=O)n1	viral cytopathicity or plaque formation			AD169		0.79 ± 0.51
Nc1ncn(C[C@@H](CF)OCP(=O)(O)O)c(=O)n1	cytopathic effect		HEL	AD-169		> 100
O=C(O)Cn1c(=O)ccn(CCCCCOc2ccc(Br)cc2)c1=O	viral replication	plaque reduction	WS1	AD169	5 days	104
Nc1ccn(C[C@@H](CO)OCP(=O)(O)O)c(=O)n1	plaque formation		HEL	AD169		0.92
C[C@H](Cn1cnc2c(=O)[nH]c(=O)[nH]c21)OCP(=O)(O)O	cytopathic effect		HEL	Davis		> 100

A few entries again:
Compound	read-out	technique	cells	strain	time	EC50 [µM]
OC[C@H]1O[C@@H](n2cnc3c(O)nc(-n4cc(-c5ccccc5)nn4)nc32)[C@H](O)[C@@H]1O	viral plaque formation		HEL	Davis		> 50
Cc1cn([C@H]2C[C@H](N=[N+]=[N-])[C@@H](COC(=O)Cn3c(=O)ccn(CCCCCCCCCCCCOc4ccc(Br)cc4)c3=O)O2)c(=O)[nH]c1=O	viral replication	plaque reduction	WS1	AD169	5 days	5.1 ± 1.2
CCCN1C(=O)c2cccc3cc(NC(=O)[C@@H]4C[C@@H](P(=O)(OCC)OCC)N(C)O4)cc(c23)C1=O (racemic)	viral plaque formation	plaque reduction	HEL	Davis		55
